Experimental data gathered from unrelated publications.
Numbered parts are unrelated; each lists some results of a single study. Positions count from the first letter of the parent shown.

Set 1
Target: CEP164, C-terminal peptide (human)
Method: DHFR complementation, deep sequencing
Matrix: yeast
Notes: single substitutions, model-inferred values
Relative to: wild type
Reading: higher = weaker binding
Starting sequence: PDZK1, PDZ domain 2 (human); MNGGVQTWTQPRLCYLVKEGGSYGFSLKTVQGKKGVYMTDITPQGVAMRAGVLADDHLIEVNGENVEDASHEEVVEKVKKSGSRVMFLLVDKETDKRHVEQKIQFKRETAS; partner HNRVKVYRF
Variant	binding free energy change [kcal/mol]
E76V	0.383
V46Q	0.627
M86G	-0.0928
A69R	-0.142
Q44S	0.0228
G21T	-0.205
N65K	0.417
Q104I	-0.138
H71V	0.063
K79N	0.554
K102C	-0.0486
K33D	0.0809
E67C	0.128
Y37N	1.02
A50D	1.32
E64Q	0.000504
E67V	-0.0517
E72R	0.73
V78F	2.54
A54E	-0.513

Set 2
Target: CCND3, cyclin fold, Cln2 fusion (human)
Method: yeast growth competition, sequencing
Matrix: yeast
Notes: weak parent motif
Relative to: not given
Reading: higher = stronger binding
Starting sequence: RBL2 docking peptide (human); STTRRRLFVENDS; partner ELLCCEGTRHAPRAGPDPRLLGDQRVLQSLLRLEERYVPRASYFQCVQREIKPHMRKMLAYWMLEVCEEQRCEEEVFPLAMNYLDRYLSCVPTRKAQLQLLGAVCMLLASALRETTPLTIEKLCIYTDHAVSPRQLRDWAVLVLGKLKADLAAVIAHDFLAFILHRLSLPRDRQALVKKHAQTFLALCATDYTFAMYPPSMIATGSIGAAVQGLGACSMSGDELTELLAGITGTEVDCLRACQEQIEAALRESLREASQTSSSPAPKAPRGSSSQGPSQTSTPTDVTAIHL
Variant	normalised enrichment score
SSTRRRLFVENDS [T2S]	0.0788
STPRRRLFVENDS [T3P]	0.0358
STTRRRLFVESDS [N11S]	0.185
STTRRRLFVENIS [D12I]	0.103
STTVRRLFVENDS [R4V]	0.0991
STTRRRLFVENRS [D12R]	0.193
STTRRRLFCENDS [V9C]	0.228
STTRIRLFVENDS [R5I]	0.0946
STGRRRLFVENDS [T3G]	0.227
STTYRRLFVENDS [R4Y]	0.238
STTRRRLFAENDS [V9A]	0.128
ITTRRRLFVENDS [S1I]	0.0986
STTRRRLFVTNDS [E10T]	-0.0295
QTTRRRLFVENDS [S1Q]	0.128
STTRRRLGVENDS [F8G]	0.0895
STTRRRIFVENDS [L7I]	0.266
STTRRRLFVENDA [S13A]	0.0617
SHTRRRLFVENDS [T2H]	0.0733

Set 3
Target: RNA binding protein fox-1 homolog 2, RRM domain, GST-SBP tag (RBFOX2, Homo sapiens, UniProt O43251-10, residues 100-194)
Method: RNA Bind-n-Seq
Molecule type: RNA
Matrix: in vitro
Concentration: 365 nM
Notes: natural RNA segment, single round, ends assumed
Relative to: no-protein control
Reading: higher = stronger binding
Residues (chain): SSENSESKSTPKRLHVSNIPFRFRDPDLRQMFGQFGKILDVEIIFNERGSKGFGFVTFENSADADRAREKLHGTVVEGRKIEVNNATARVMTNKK
Strand	RBNS enrichment (R)
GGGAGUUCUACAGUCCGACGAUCCCGGUGACCGCGAGGAGUCGGUGAGGUGGGACUGGUGACUCUCAGAAGCUCCUCGGUGCACUUUUGUCUCGGCAGAGCUGGGAGGGAGCAGGCGCUCGCGGAAGCACGUCUGGAAUUCUCGGGUGCCAA	0.809
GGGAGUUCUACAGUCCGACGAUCAUGGAUGAAUACCUGAGUCACCAGCUGAAGUGUCCCUUAUGAGGAAAGAAGAGGCCAGGGACUAGAAGAUGCACCCCUUUCCUCCUGGGAGCCCCACGCUUCAGGAGUAGUGGAAUUCUCGGGUGCCAA	0.44
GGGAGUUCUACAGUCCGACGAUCCUGGAGGUCAGCUAUAGCUAAAAUUGUUAUUUCUCUGGGGAGGGGACUUUUUUUAUCUUUAUUUUUAUUUUGGAGAUUGGAUUUUUCUAUGUAGCUAUGGCUGUCCUUGAUGGAAUUCUCGGGUGCCAA	1.41
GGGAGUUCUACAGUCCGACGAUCCCUUUAAGAUUCUUUCUAGACUUAAAUUUUGUGCCAUGGCCCACUGGAUGUAGAUAUUCUACAAGGAAGUAGAAACUUUUAAUACGAAGUAAUGAUUCCUCUAAAGGGAAUGGAAUUCUCGGGUGCCAA	0.338
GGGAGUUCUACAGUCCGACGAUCCUCUGUCCCUCGUGCUUCACUGUGGGCAGCCAGGGACAAGCUUCUGAAAGCAGUGUGAUACCCAAGUCAUAGGUGCUUCUCGUAUGUGAACAGGUGUCAUUCUACAGAUCUGGAAUUCUCGGGUGCCAA	0.244
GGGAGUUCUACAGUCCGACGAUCUUGUUGAAUGACUCCUUUUGGAAAGUUUAAACUCUGACAUGGCAUUGCCCUGGAAGUCUUGCCCCAUCAUUUAACAAGGAACUCAAGUAGGAAAUGAGUGACAUCAAGUCUGGAAUUCUCGGGUGCCAA	0.317
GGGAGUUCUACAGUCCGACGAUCAGCUAACUGGAUUUGGGUAUAUGCCCUUUAAGUUAAAAAUAAUAUGUAUUUCUAAUUUGCAUAUUUAAUUUUGUCAACACUAAGAAAUGUUCAUGUGUUGAAUUUGUAAAUGGAAUUCUCGGGUGCCAA	0.94
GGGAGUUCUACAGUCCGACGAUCGCCAACAAAGCCACAUGGCUGUCCUAGUGAGCUUCCUUUCUUACCUGUCUUGAGCUGGGCGUCUCUUUAAUUACUGCCUCUGCCCCGGACCCUUCUCUCUAGACUUGGGAUGGAAUUCUCGGGUGCCAA	0.753
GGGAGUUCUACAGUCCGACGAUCCAGAAAUAUUGACAAAUGCUGGCCAGCUUUAUCUUCCUAUAUCCUUCAUUAAAAGUAUAUGCAUAUAUUGUUGGUUUUUUUUCCUAAAUUGUGGCUUUGUUAAACAAUGUUGGAAUUCUCGGGUGCCAA	0.339
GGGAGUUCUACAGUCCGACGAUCUUUUUUAAAAAAAAAAAGAAGAAAAAAGAGACAGAGAAAAUUGGUAUUUAUUUUUCUAUUAUAGCCAUAUUUAUAUAUUUAUGCACUUGUAAAUAAAUGUAUAUGUUUUAUGGAAUUCUCGGGUGCCAA	2.03
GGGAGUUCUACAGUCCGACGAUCUGAUUGAUGGUUGUAUUAUUUUCUCUGAAUCCUCUUCACUGGCCAAAGGUUGGCAGAUAGAGGCUGUUCCCAGGCCAGUGAGCUUUACUUGCAGUGUAAAAGGAGGAAAGUGGAAUUCUCGGGUGCCAA	0.373
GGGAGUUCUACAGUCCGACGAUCUUCUUUCAUCUGUGGCUCAUCCCUGUAAAACUACGAAUCUGAGCCUCAAAUAAGCAGUAGUUUUUUUGUUGUUUAUUUUUAAUGAAACAGCUGUGUUAAGGCGCUGCUUCUGGAAUUCUCGGGUGCCAA	0.324

Set 4
Target: Interferon regulatory factor 7, full length, phosphomimetic (IRF7, Homo sapiens, UniProt Q92985, residues 1-503, S471D/S472D/S475D/S476D/S477D/S483D/S484D/S487D)
Method: protein-binding microarray
Molecule type: double-stranded DNA, one strand shown
Matrix: in vitro
Concentration: 2200 nM top
Notes: 60-bp whole probe
Together with: salmon DNA 0.4 mg/ml
Relative to: random background probes
Reading: higher = stronger binding
All sequences stand within: GCCTAGCAC … GTCTTGATTCGCTTGACGCTGCTG
Residues (chain): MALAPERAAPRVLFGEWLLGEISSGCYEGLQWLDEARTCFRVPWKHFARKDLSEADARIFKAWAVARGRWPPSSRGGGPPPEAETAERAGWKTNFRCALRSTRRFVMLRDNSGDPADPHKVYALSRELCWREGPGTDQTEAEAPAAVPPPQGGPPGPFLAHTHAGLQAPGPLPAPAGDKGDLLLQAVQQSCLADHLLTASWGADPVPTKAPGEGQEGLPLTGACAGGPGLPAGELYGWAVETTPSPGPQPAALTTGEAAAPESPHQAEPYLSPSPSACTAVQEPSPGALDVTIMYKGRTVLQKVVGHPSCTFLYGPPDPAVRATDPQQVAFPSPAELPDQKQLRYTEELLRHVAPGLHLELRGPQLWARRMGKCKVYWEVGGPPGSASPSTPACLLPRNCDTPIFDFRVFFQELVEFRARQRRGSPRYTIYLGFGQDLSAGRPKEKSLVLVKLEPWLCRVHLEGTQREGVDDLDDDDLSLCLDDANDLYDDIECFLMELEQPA
Strand	fitted relative affinity [z-score]
TAAGATTTCAGACTGGATTAGTGCTAG	-0.14
TCAGCATTTTTTTTATCACTGTGCTAG	0.631
GACGATTTCGGGACTGAAGACGTGCTA	0.949
TCATTTTTGTTGTTTTTACTGTGCTAG	2.3
TCAGGACTCAGGTCTCCCACTGTGCTA	-0.0275
CTGGGTATTTTTCTAAACCAGTGCTAG	0.26
TTAGATTTCAGTTTCTATTAGTGCTAG	4.03
CTAGGTTTCGGACTGGGTTAGTGCTAG	3.26
GACGGTTTCGGGTATCGGGACGTGCTA	6.07
TTCATTCCTGATCTCTGGTCGTGCTAG	1.8
TTATGTTTCCTTATCCTTTAGTGCTAG	3.18
TCATATATACCTGTATAACTGTGCTAG	1.06
GTCGATTTCAGTTCCGAGACGTGCTAG	2.74
TCACCTTTCGGAATACCACTGTGCTAG	5.4
TTTATTTTTTTTATTTATAAGTGCTAG	1.77
TTAGGACTGCTTCTCCTGTAGTGCTAG	0.527
TTAGATAACAGTCTCGATTAGTGCTAG	-0.0746

Set 5
Target: ABI1, truncated, D143A, DHFR fusion (Arabidopsis thaliana)
Method: DHFR PCA, deep sequencing
Matrix: yeast
Notes: methotrexate growth selection, single substitutions
Together with: (+)-ABA 0.11 µM
Relative to: wild-type fitted maximum
Reading: higher = stronger binding
Starting sequence: PYL1, truncated, DHFR fusion (Arabidopsis thaliana); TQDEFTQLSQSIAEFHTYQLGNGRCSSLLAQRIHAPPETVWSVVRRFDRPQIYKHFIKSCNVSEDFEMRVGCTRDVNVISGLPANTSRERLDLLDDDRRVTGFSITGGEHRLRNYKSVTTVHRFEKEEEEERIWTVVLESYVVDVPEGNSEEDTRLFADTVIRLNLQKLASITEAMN
Variant	relative binding score [%]
G108Y	3.49
G23W	-1.45
G108S	0.285
V137W	-2.45
P146Y	-3.97
S42P	-5.7
D159E	8.46
R111V	9.77
E129P	52
I162Y	1.15
R163S	20.9
T101C	20.7
S63H	15.8
S80D	4.63
R24C	10.6

Repeated from above (set 1):
Variant	binding free energy change [kcal/mol]
E76V	0.383
V46Q	0.627
M86G	-0.0928
A69R	-0.142
Q44S	0.0228
G21T	-0.205
N65K	0.417
Q104I	-0.138
H71V	0.063
